Experimental data gathered from unrelated publications.
Compare with care: the assays were run in different laboratories. ± marks the error that the study gave.
CYP3A4: Cytochrome P450 3A4 (CYP3A4, Homo sapiens, UniProt P08684)
Sequence of UniProt P08684 (whole entry, looked up): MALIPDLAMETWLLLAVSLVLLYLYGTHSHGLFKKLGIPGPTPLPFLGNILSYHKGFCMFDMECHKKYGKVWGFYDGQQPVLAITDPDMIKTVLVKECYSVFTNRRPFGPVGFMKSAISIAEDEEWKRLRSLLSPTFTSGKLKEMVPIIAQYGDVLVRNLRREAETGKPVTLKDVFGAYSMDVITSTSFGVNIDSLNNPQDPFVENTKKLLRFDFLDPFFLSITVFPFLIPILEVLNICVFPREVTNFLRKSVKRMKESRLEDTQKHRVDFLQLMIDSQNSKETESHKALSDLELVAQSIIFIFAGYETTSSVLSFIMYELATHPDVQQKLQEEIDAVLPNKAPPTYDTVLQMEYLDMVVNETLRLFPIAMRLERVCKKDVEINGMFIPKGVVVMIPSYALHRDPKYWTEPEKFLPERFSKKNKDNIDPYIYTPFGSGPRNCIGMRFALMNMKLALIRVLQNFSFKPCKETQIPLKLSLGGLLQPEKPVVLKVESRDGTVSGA
Sequence of UniProt P08683 (whole entry, looked up): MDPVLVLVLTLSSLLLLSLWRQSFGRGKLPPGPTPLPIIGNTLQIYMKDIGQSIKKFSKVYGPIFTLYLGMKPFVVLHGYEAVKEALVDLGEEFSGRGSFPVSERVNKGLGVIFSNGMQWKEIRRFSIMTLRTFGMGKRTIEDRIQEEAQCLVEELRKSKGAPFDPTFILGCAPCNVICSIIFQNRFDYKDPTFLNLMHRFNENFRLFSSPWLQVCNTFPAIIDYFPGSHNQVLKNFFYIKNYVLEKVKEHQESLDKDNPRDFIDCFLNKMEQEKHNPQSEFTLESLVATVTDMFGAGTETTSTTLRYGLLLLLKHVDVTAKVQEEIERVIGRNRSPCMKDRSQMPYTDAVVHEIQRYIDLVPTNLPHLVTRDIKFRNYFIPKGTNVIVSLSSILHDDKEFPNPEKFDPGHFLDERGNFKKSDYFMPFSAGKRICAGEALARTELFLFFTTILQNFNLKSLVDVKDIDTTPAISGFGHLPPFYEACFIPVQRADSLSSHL
Sequence of UniProt Q08499 (whole entry, looked up): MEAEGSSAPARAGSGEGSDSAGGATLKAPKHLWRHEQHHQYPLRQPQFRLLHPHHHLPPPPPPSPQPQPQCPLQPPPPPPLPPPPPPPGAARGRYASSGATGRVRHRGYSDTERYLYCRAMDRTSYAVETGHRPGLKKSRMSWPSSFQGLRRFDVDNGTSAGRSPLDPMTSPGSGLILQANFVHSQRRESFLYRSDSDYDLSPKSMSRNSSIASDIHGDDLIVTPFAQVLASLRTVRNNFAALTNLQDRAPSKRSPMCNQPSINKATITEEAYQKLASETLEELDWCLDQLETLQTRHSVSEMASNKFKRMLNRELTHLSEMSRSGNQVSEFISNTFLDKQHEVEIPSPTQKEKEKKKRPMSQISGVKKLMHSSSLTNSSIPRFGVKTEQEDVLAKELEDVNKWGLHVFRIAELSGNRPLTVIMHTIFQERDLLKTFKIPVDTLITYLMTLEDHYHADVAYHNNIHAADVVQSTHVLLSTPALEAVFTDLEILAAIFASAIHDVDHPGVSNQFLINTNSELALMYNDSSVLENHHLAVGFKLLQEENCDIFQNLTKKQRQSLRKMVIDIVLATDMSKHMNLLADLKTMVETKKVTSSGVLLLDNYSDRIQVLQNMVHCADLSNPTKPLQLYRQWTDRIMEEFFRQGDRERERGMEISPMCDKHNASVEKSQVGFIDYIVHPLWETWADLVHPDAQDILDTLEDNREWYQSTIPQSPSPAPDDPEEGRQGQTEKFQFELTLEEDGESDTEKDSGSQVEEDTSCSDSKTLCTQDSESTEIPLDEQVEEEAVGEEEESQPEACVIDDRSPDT
Sequence of UniProt O75469 (whole entry, looked up): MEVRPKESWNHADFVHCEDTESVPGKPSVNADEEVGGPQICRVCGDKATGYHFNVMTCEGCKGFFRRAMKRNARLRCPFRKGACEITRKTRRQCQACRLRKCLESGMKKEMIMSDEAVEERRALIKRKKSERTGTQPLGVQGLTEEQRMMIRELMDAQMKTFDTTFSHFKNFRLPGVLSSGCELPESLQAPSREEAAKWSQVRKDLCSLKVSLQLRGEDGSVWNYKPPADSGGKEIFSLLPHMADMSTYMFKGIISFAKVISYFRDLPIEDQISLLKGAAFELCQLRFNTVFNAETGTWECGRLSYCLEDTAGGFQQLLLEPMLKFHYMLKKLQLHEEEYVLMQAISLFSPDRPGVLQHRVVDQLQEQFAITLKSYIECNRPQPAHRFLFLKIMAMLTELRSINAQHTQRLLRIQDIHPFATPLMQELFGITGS

The fold activation of `CCC(=O)N(C)c1ccc(Cl)c(Cl)c1` is reported as 1.6 fold (Nuclear receptor subfamily 1 group I member 2 (NR1I2, Homo sapiens, UniProt O75469); reporter gene, agonist; 32 µM; reference: vehicle).
With `Clc1cc(Cl)cc(CNCCCNc2nc3ccccc3[nH]2)c1` the selectivity index was 1380 (Trypanosoma brucei; reference: MRC-5 SV2 TC50 over EC50).
With `[64Cu+2].c1cnc(CNCc2ccc(CN3CCCN4CCNCCCN(CC4)CC3)cc2)nc1` the tissue uptake was 1.63 ± 0.96 %ID/g (CXCR4; NOD/SCID mouse, U87 and U87-stb-CXCR4 xenografts, bladder; iv, 450 min, ex vivo).
The tracer uptake of `N#C[C@@H]1CCCN1C(=O)CNC(=O)c1ccnc2ccc(OCCCN3CCN(C(=O)CCc4ccc5c(c4)CN4CCN(Cc6cc(CCC(=O)O)ccc6O)CC(=O)[O][Al-]([18F])([O]C(=O)C4)[O]5)CC3)cc12` (stereo partly drawn) is reported as 12.8 %ID/g (U-87 MG tumour model; host not given, tumour; 2 h, tumour-bearing).
With `N[C@H](CSC(F)(F)[18F])C(=O)O` the tracer uptake was 3.56 %ID/g (C6 tumour model; male nude, tumour; intravenous, 3.7 MBq, 75 min, tumour-bearing).
For `[11CH3]Oc1ccc(Cc2cn[nH]c2)nc1-c1cccc([N+](=O)[O-])c1`, “increase of apparent VT” read 30% (3',5'-cyclic-AMP phosphodiesterase 4D (PDE4D, Homo sapiens, UniProt Q08499); PET; human, brain; concentration not given, last 50 min of 20 to 120 min).
`CC(C)[C@H](NC(=O)CNC(=O)[C@H](CCC(N)=O)NC(=O)[C@H](C)N)C(=O)O` has a Cmax of 441 ng/mL (human, both sexes, plasma; intravenous infusion, 15 mg/kg/h, 2 h infusion, geometric mean).
Under “activity vs control”, `C=CC(=O)Nc1cc(Nc2nccc(-c3cn(C)c4ccccc34)n2)c(OCC(F)(F)F)nc1N(C)CCN(C)C` is recorded as 112% (CYP3A4; enzyme activity, inhibitor; human, liver microsomes; 3.33 µM, testosterone probe).
`[64Cu+2].c1ccc(CNCc2ccc(CN3CCCN4CCNCCCN(CC4)CC3)cc2)nc1` has a tissue uptake of 4.97 ± 0.96 %ID/g (CXCR4 (human); NOD/SCID mice, U87 xenografts, small intestine; 60 min post-injection).
Under “subjects with TEAE”, `Cn1c(=O)oc2ccc(-c3ccc(CC(C#N)NC(=O)C4CNCCCO4)c(F)c3)cc21` (stereo not drawn) is recorded as 16.7% (measured: monocyte count increased; human; 80 mg single dose, fasted).
For `COc1ccc2cc(NC(=O)c3cc(-c4ccncc4)nc4ccccc34)ccc2c1`, the kcat was 0.0103 s⁻¹ (CYP3A4; substrate, measured: naphthalene-hydroxylated metabolite M2; baculosomes).
`CCOc1ccccc1-c1nc(CC(=O)N2CCc3sccc3C2)cs1` gave an EC50 of roughly 25 µM (Trypanosoma brucei; cell viability, flow cytometry, PI; bloodstream form; 24 h).
`O=C(O)CCC(NP(=O)(O)OCCC[C@@H](NC(=O)CC[C@H](NC(=O)CCCCCNC(=O)c1ccc([18F])cc1)C(=O)O)C(=O)O)C(=O)O` (stereo partly drawn) has a tracer uptake of 0.159 %ID/g (CWR22Rv1 tumour model; host not given, lung; 4 h, tumour-bearing).
For `NS(=O)(=O)Nc1ncnc(OCCOc2ncc(Br)cn2)c1-c1ccc(Br)cc1`, “contribution to total CLint” read 20% (Cytochrome P450 2C11 (Cyp2c11, Rattus norvegicus, UniProt P08683); substrate, measured: compound formation; rat, male; pH 7.4, mRNA abundance scaled).
The EC50 of `Cc1cc2occ(CC(=O)N3CCC(C(=O)NCc4ccccc4)CC3)c2cc1C` is reported as roughly 25 µM (Trypanosoma brucei; cell viability, flow cytometry, PI; bloodstream form; 24 h).

Some of these lines once more:
For `NS(=O)(=O)Nc1ncnc(OCCOc2ncc(Br)cn2)c1-c1ccc(Br)cc1`, “contribution to total CLint” read 20% (Cytochrome P450 2C11 (Cyp2c11, Rattus norvegicus, UniProt P08683); substrate, measured: compound formation; rat, male; pH 7.4, mRNA abundance scaled).
